Results of several laboratories.
Parts stem from different laboratories: compare values within a part only.
UniProt O96013, sequence (whole entry, looked up): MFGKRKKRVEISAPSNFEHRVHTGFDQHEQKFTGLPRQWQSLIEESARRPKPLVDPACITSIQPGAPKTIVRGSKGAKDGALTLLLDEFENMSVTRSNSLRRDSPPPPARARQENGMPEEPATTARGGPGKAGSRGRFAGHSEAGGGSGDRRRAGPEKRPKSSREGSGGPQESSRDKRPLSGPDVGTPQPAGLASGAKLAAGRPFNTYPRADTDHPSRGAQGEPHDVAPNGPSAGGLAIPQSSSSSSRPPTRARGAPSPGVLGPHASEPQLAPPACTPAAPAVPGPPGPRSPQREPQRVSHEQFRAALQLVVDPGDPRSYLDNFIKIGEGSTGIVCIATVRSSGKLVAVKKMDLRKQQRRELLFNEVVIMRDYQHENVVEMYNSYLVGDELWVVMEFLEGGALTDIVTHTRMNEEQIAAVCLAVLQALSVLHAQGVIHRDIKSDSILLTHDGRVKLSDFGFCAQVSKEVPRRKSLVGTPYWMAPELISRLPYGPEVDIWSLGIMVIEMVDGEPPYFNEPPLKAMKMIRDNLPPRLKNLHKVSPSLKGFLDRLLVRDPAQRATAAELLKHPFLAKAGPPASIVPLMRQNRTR
UniProt Q9BWU1, sequence (whole entry, looked up): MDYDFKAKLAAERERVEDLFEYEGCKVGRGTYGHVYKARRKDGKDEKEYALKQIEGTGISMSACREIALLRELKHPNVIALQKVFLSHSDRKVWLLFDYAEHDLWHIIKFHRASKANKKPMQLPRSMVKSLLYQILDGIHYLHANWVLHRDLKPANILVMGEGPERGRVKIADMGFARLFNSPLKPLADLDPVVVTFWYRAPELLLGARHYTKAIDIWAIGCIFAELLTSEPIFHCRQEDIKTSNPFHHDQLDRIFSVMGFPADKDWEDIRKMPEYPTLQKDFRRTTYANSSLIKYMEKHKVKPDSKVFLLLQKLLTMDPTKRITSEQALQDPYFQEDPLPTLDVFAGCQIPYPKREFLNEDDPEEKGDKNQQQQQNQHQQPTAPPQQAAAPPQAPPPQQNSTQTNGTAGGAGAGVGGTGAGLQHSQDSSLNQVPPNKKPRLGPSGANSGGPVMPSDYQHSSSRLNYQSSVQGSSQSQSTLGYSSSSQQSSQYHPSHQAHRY
UniProt Q8IWQ3, sequence (whole entry, looked up): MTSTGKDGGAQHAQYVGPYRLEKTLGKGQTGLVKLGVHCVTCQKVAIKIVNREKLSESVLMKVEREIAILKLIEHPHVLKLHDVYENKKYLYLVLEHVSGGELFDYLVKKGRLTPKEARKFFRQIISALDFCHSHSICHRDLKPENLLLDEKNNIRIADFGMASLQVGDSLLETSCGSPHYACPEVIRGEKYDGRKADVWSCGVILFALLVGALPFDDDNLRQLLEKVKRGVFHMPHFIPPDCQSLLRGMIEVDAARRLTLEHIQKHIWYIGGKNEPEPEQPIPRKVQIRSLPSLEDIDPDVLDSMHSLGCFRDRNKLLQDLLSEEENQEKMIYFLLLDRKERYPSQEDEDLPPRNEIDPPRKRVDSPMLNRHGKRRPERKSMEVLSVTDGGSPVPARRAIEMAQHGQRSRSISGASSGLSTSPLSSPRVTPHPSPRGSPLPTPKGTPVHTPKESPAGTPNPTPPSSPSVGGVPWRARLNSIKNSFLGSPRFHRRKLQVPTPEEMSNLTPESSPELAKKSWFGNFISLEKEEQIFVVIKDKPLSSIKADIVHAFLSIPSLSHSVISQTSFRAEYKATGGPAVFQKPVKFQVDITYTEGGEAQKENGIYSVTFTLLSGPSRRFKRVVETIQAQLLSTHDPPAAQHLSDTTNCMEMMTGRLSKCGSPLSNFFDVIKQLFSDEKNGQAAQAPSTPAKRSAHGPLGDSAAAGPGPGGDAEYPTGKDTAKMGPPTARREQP
UniProt Q13153, sequence (whole entry, looked up): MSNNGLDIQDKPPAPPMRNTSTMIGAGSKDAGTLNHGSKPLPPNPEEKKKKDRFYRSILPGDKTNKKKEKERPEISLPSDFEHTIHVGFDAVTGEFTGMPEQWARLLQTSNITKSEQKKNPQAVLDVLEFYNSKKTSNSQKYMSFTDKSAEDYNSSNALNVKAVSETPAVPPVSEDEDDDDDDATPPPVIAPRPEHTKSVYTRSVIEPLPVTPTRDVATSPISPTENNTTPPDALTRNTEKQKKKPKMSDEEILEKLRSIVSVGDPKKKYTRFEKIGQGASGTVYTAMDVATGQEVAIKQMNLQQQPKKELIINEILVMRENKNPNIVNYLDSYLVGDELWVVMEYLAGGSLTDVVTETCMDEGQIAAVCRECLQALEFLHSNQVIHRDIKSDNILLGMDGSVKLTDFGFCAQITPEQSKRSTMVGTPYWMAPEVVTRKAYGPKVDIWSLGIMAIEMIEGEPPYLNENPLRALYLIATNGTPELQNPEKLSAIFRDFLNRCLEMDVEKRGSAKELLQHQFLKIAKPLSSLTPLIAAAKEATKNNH
UniProt Q9Y5S2, sequence (whole entry, looked up): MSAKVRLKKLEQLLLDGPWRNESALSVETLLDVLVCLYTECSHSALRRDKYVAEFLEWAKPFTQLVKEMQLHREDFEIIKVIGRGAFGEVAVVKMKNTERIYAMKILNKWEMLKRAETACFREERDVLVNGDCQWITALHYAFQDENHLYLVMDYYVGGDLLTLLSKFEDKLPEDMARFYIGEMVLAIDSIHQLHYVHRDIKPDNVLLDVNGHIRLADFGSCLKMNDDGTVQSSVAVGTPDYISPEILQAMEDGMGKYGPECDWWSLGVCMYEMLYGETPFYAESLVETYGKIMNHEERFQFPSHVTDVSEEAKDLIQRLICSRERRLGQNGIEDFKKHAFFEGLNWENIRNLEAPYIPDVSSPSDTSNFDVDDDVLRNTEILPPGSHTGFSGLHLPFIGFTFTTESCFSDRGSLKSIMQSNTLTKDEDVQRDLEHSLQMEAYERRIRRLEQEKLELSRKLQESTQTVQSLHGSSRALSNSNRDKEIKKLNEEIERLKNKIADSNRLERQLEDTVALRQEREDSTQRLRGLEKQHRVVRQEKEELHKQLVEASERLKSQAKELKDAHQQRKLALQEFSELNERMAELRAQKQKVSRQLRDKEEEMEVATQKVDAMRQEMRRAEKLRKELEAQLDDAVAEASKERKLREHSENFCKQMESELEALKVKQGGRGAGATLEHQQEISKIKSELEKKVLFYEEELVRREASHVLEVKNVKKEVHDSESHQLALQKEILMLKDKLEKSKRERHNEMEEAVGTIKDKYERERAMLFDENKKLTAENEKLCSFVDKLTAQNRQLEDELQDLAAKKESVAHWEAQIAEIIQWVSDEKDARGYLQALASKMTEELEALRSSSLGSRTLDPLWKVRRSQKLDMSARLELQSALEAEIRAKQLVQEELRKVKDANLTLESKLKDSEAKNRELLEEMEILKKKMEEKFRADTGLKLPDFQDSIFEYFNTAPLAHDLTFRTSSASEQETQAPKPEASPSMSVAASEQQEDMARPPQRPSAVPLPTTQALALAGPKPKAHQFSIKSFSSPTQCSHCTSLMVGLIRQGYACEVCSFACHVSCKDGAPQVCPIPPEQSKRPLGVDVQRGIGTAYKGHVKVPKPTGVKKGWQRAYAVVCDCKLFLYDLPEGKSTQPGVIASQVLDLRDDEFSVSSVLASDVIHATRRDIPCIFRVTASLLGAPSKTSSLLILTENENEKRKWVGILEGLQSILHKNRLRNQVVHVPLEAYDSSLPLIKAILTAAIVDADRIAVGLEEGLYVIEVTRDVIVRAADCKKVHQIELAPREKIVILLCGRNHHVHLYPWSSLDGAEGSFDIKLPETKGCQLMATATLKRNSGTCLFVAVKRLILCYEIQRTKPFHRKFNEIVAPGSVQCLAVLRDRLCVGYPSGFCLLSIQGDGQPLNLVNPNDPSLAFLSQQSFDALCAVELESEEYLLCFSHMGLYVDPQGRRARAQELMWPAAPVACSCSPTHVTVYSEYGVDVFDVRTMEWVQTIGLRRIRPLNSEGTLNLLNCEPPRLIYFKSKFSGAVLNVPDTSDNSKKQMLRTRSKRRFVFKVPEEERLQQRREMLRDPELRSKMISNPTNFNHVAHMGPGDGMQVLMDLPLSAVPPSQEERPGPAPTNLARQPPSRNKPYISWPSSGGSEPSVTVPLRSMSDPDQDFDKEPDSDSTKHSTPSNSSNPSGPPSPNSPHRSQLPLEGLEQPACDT
UniProt P07332, sequence (whole entry, looked up): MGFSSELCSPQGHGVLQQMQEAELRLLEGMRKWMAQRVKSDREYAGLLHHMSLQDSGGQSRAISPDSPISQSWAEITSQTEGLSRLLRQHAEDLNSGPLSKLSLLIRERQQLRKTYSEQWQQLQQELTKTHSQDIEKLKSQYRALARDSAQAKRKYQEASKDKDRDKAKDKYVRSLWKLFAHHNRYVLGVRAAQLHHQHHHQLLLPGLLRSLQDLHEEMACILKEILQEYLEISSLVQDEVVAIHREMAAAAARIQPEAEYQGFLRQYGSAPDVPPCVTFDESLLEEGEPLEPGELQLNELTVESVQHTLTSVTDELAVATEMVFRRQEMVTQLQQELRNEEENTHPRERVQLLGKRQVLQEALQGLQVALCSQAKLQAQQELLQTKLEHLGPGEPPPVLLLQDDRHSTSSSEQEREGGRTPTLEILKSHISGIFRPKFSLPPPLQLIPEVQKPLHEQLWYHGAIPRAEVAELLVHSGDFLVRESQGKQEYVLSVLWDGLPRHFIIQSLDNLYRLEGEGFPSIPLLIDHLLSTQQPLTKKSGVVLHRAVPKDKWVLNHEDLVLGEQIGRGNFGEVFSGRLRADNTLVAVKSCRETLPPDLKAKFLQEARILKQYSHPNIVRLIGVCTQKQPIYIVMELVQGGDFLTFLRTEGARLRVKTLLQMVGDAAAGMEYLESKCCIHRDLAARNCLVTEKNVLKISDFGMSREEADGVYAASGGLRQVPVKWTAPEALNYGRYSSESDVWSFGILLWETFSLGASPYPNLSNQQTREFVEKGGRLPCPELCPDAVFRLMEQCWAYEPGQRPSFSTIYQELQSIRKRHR

Set 1 — effect on: enzyme activity; action: inhibitor; tested at: 0.5 µM; relative to: control
SMILES: CC(C)c1nn(-c2c(Cl)cccc2Cl)c2nc(Cc3ccc(OCCO)cc3)[nH]c(=O)c12
For JAK1 (Homo sapiens, UniProt P23458): remaining activity read 101%.
It gave 97.1% for remaining activity (CSNK1D (Homo sapiens, UniProt P48730)).
It gave 97% for remaining activity (FES (Homo sapiens, UniProt P07332)).
It gave 44% for remaining activity (CLK2 (Homo sapiens, UniProt P49760)).
The remaining activity was 100% (CAMKK1 (Homo sapiens, UniProt Q8N5S9)).
PAK4 (Homo sapiens, UniProt O96013) — remaining activity: 106%.
The remaining activity was 94.7% (CLK1 (Homo sapiens, UniProt P49759)).
The remaining activity was 8.6% (Cyclin-dependent kinase 2, with cyclin E (CDK2, Homo sapiens, UniProt P24941)).
It gave 99% for remaining activity (PIM1 (Homo sapiens, UniProt P11309)).
For EPHB3 (Homo sapiens, UniProt P54753): remaining activity read 92.6%.
It gave 97.4% for remaining activity (SRPK1 (Homo sapiens, UniProt Q96SB4)).
RPS6KB2 (Homo sapiens, UniProt Q9UBS0) — remaining activity: 106%.
For MELK (Homo sapiens, UniProt Q14680): remaining activity read 84%.
The remaining activity was 100% (EPHA2 (Homo sapiens, UniProt P29317)).
For IGF1R (Homo sapiens, UniProt P08069): remaining activity read 24.8%.
It gave 96.2% for remaining activity (MUSK (Homo sapiens, UniProt O15146)).
CSNK1E (Homo sapiens, UniProt P49674) — remaining activity: 83.6%.
The remaining activity was 98.3% (BRSK2 (Homo sapiens, UniProt Q8IWQ3)).
For DYRK1A (Homo sapiens, UniProt Q13627): remaining activity read 105%.
It gave 89.7% for remaining activity (PAK1 (Homo sapiens, UniProt Q13153)).
The remaining activity was 85.1% (CAMK1 (Homo sapiens, UniProt Q14012)).
For ERBB2 (Homo sapiens, UniProt P04626): remaining activity read 101%.
YES1 (Homo sapiens, UniProt P07947) — remaining activity: 86.3%.
PAK5 (Homo sapiens, UniProt Q9P286) — remaining activity: 76.4%.
It gave 9.64% for remaining activity (Cyclin-dependent kinase 5, with p35 (CDK5, Homo sapiens, UniProt Q00535)).

Set 2 — effect on: binding; tested at: 1 µM
SMILES: CN1CCN(C(=O)c2ccc(NC(=O)Nc3ccc(N(C)c4ccnc(Nc5ccc(CS(C)(=O)=O)cc5)n4)cc3)cc2)CC1
It gave 83% for remaining binding (STK25 (Homo sapiens, UniProt O00506); competition with immobilised ligand).
The remaining binding was 85% (ERBB3 (Homo sapiens, UniProt P21860); competition with immobilised ligand).
FER (Homo sapiens, UniProt P16591) — remaining binding: 46%.
It gave 86% for remaining binding (CDC42BPB (Homo sapiens, UniProt Q9Y5S2); competition with immobilised ligand).
The remaining binding was 0% (FLT3 (Homo sapiens, UniProt P36888, R834Q)).
It gave 25% for remaining binding (MAPK15 (Homo sapiens, UniProt Q8TD08); competition with immobilised ligand).
CAMK1D (Homo sapiens, UniProt Q8IU85) — remaining binding: 98%.
The remaining binding was 84% (MARK2 (Homo sapiens, UniProt Q7KZI7)).
The remaining binding was 37% (STK36 (Homo sapiens, UniProt Q9NRP7); competition with immobilised ligand).

Set 3 — tested at: 1 µM
SMILES: CCC(=O)N[C@@H]1CC[C@H](C(=O)N(C)c2ccc(-c3nc4ccccc4o3)cc2)C1
The remaining binding was 100% (BRSK1 (Homo sapiens, UniProt Q8TDC3); cell-free assay, competition with immobilised ligand).
NEK6 (Homo sapiens, UniProt Q9HC98); cell-free assay, competition with immobilised ligand — remaining binding: 99%.
For SIK1 (Homo sapiens, UniProt P57059); competition binding: remaining binding read 95%.
It gave 100% for remaining binding (ALK (Homo sapiens, UniProt Q9UM73, C1156Y); cell-free assay, competition with immobilised ligand).
The remaining binding was 82% (CDK19 (Homo sapiens, UniProt Q9BWU1); competition binding).
It gave 99% for remaining binding (MTOR (Homo sapiens, UniProt P42345); cell-free assay, competition with immobilised ligand).
FLT3 (Homo sapiens, UniProt P36888, D835Y); cell-free assay, competition with immobilised ligand — remaining binding: 100%.
The remaining binding was 100% (STK35 (Homo sapiens, UniProt Q8TDR2); cell-free assay, competition with immobilised ligand).
For MATK (Homo sapiens, UniProt P42679); cell-free assay, competition with immobilised ligand: remaining binding read 100%.

Set 4 — action: inhibitor; tested at: 10 µM; relative to: control
Target: Diamine acetyltransferase 1 (Homo sapiens, UniProt P21673)
Target sequence (P21673 1-171): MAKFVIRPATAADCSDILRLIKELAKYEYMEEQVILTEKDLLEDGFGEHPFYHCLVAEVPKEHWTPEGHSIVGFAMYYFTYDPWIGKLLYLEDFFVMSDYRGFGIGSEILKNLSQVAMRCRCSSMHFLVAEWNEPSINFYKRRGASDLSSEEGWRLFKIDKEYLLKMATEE
With `CCCCCCCC/C=C\CCCCCCC(O)C(=O)O` (racemic) the remaining activity was 92.3%.
With `CC(C)[C@@H](C)/C=C/[C@@H](C)[C@H]1CC[C@H]2C3=CC=C4C[C@@H](O)CC[C@]4(C)[C@H]3CC[C@]12C` the remaining activity was 103%.
For `C[C@@H]1O[C@@H](O[C@H]2[C@H](Oc3cc(O)c4c(=O)cc(-c5ccc(O)c(O)c5)oc4c3)O[C@H](CO)[C@@H](O)[C@@H]2O)[C@H](O)[C@H](O)[C@H]1O`, the remaining activity was 99.5%.
For `CC(C)[C@@H](C)CC[C@@H](C)[C@H]1CCC2=C3CC[C@H]4C[C@@H](O)CC[C@]4(C)[C@H]3CC[C@@]21C`, the remaining activity was 82.5%.
With `Cc1cc(O)c(C(=O)CCC(C)C)c(=O)o1` the remaining activity was 107%.
`COc1ccc(-c2cc(=O)c3c(OC)cc(OC)cc3o2)cc1` gave a remaining activity of 88.7%.
With `CCOC(=O)CCC(=O)OCC` the remaining activity was 86.4%.
The remaining activity of `OC[C@H]1O[C@H](OC[C@H]2O[C@H](O[C@]3(CO)O[C@H](CO)[C@@H](O)[C@@H]3O)[C@H](O)[C@@H](O)[C@@H]2O)[C@H](O)[C@@H](O)[C@H]1O` is reported as 103%.
The remaining activity of `COc1ccc2cc3[n+](cc2c1OC)CCc1cc2c(cc1-3)OCO2` is reported as 73.7%.
The remaining activity of `CCCCCCCCCCCCC(=O)O` is reported as 99.9%.

Excerpt of the above (set 1):
The remaining activity was 100% (CAMKK1 (Homo sapiens, UniProt Q8N5S9)).
PAK4 (Homo sapiens, UniProt O96013) — remaining activity: 106%.
The remaining activity was 94.7% (CLK1 (Homo sapiens, UniProt P49759)).
